{"data": "Assay results of several laboratories", "note": "A part holds a random share of what one study measured. Substitutions count along the parent as printed."}
{"data": "Study 1", "Molecule": "PhoQ, residues 284 288 289 292 302 303 TLASMF", "method": "Sort-seq", "refers to": "YFP reporter", "matrix": "E. coli", "setting": "PhoQ-PhoP variant library", "together with": "10 µM Mg2+", "reference": "high Mg2+ state", "reading": "higher = stronger signaling"}
{"target": "PhoP, residues 12 14 15 18 19 QYCSL (Escherichia coli, UniProt P23836)", "fold induction": 3.2}
{"target": "PhoP, residues 12 14 15 18 19 STHWV (Escherichia coli, UniProt P23836)", "fold induction": 8.92}
{"target": "PhoP, residues 12 14 15 18 19 SHWTV (Escherichia coli, UniProt P23836)", "fold induction": 8.81}
{"data": "Study 2", "target": "RNA binding protein fox-1 homolog 2, RRM domain, GST-SBP tag (RBFOX2, Homo sapiens, UniProt O43251-10, residues 100-194)", "method": "RNA Bind-n-Seq", "molecule type": "RNA", "matrix": "in vitro", "tested at": "365 nM", "setting": "natural RNA segment, single round, ends assumed", "reference": "no-protein control", "reading": "higher = stronger binding", "Residues (chain)": "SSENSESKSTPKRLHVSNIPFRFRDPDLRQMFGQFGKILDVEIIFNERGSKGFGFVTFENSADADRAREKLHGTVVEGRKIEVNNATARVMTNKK"}
{"Strand": "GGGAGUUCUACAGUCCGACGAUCCAACUUCUGGAUCGCAACCCCUUUGGGGGUGGGUAGGUCACAUAACAGAUAUGCUGACUAACAGAGAUUGCCAUUAUGAUUUAUAACAAUAUCAAAUGUAUAGUUAUGAAUGGAAUUCUCGGGUGCCAA", "RBNS enrichment (R)": 0.208}
{"Strand": "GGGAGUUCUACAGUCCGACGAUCGAGACCAUUCUCAAGGGUAGGUGUUCUGCAGCCCCGAAUCAAAUCAUGUGAAAACCCCUUAAAUGAUCAUUGGUUCUCAACCUGUGCCAGCAUACUGCCUCUCUGUCUCCUGGAAUUCUCGGGUGCCAA", "RBNS enrichment (R)": 0.334}
{"Strand": "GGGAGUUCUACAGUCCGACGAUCAUGUUGCUGAACAUACAUACACCUCCGAAAUGCCAGUUCUGCAUUCUACACAUAUGCUUUCUGGCAGCGAGUUUAUUGCCAGAUUUUAAACAGGGAGUUAUGUGGUGCUUUGGAAUUCUCGGGUGCCAA", "RBNS enrichment (R)": 0.408}
{"Strand": "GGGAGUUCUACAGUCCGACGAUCUGUUGUUGACCAAAAUCACACACAUGGAAACAUGUAAUUCAACAGAGUGGGAAAGCUAGCAGAUUCUUGGCUUAGUAUUACUAAUAGGCAGGAUUGUACAAUGAGCAACUUGGAAUUCUCGGGUGCCAA", "RBNS enrichment (R)": 0.154}
{"Strand": "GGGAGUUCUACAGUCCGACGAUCGUCUGGUCCCUGGCUCCUCUGACCAGCCCUUAGGCUAUGUGGUGGCUUCUCUCUGCCUCAGUGUCCGGGUCUGUAAGGUGGGCAGUUGAUGAUUUGUGGCAUCUCAACCAUGGAAUUCUCGGGUGCCAA", "RBNS enrichment (R)": 0.448}
{"Strand": "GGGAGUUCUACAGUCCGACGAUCCGUGGGGAUCUGGGAGCUGGCACUGUGUACACCUGUCCCUGACUGUCCACGUCUCCCGUGAUUGCCAGUGCUAAUAUGGCUGGGGCUGAGACUUUGCAAGGCCUAAUGCCUGGAAUUCUCGGGUGCCAA", "RBNS enrichment (R)": 0.983}
{"Strand": "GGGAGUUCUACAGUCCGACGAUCCAUCAGGCCCUUAAUUAUGGCAGAGAGGUAAUCAGCUGGCUACAGCCAGGAUGCUCAGCAUUGGAAGACUGGUGUGUGAUGGCUGCUACCACCUCUCCCUGGACAGCAGCUGGAAUUCUCGGGUGCCAA", "RBNS enrichment (R)": 0.594}
{"Strand": "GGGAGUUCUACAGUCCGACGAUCUGGCAAAGGUUUUCUGGAAAGAACAAGUUUCUCAAAGGACUUUCUUCCUCUAGAAUGUUCAUUUUAUGAGAUCGCUAUCUGUAAGUCCAGUUGGAUUACAGGAAUACUUGUGGAAUUCUCGGGUGCCAA", "RBNS enrichment (R)": 0.255}
{"data": "Study 3", "target": "Ras GTPase-activating protein-binding protein 1, full length (G3BP1, Homo sapiens, UniProt Q13283)", "method": "RNA Bind-n-Seq", "molecule type": "RNA", "matrix": "in vitro", "tested at": "200 nM", "setting": "whole 134-nt RNA, ends assumed", "together with": "150 mM KCl", "reference": "input library", "reading": "higher = stronger binding", "UniProt Q13283, sequence (whole entry, looked up)": "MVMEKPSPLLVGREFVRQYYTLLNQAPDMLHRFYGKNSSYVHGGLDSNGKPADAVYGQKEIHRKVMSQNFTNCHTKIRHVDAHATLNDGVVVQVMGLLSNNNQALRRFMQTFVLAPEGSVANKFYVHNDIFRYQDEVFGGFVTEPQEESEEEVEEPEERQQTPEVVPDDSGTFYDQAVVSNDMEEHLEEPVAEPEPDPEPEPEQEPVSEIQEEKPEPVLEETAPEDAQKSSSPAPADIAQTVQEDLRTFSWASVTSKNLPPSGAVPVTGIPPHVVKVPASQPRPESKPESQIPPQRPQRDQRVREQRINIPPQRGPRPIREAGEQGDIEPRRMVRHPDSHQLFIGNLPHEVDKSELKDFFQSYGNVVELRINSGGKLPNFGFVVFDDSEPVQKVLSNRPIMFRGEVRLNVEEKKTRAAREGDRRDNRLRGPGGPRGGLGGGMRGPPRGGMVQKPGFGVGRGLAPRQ"}
{"Strand": "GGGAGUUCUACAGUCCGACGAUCUGGCCCUGGUGGCAUGCGGGGAGGAAGAGGUGGCCUCAUGCAUCGUGGUGGUCCCGGUGGAAUGUUCAGAGGUGGCCGUGGUGGAGACAGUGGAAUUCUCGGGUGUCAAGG", "log2 enrichment": 0.145}
{"Strand": "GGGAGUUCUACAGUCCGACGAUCCAAGUCCUGUGCUACACAUCGUAUGUACCGAAUCGGGCCCGGGGCCCGGGGCCCGGAAAGUAUUAUGUUACGCCGUUCGGAUCUGCACUUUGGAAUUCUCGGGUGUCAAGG", "log2 enrichment": -0.782}
{"Strand": "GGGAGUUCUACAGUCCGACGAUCCUCAAGUCCUGUGCUACACAUCGUAUGUACCGAAUCGGCCGGGCCGGGCCGGGAAAGUAUUAUGUUACGCCGUUCGGAUCUGCACUUCCAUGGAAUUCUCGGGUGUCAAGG", "log2 enrichment": -0.474}
{"Strand": "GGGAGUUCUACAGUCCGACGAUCCAAGUCCUGUGCUACACAUCGUAUGUACCGAAUCGGGAGGGUUUUUGGGUUUGGGAAAGUAUUAUGUUACGCCGUUCGGAUCUGCACUUCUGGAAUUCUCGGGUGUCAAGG", "log2 enrichment": 0.325}
{"Strand": "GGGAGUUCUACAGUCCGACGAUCAAGUCCUGUGCUACACAUCGUAUGUACCGAAUCAAAUUUAAACCCAAAUUUUUAAAAAAGUAUUAUGUUACGCCGUUCGGAUCUGCACUUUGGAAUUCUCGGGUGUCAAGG", "log2 enrichment": -0.468}
{"Strand": "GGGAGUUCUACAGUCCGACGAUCGUCCUGUGCUACACAUCGUAUGUACCGAAUCAAACCCAAACCCCCAAAUUUUUUUAAAAAAGUAUUAUGUUACGCCGUUCGGAUCUGCACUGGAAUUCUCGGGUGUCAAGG", "log2 enrichment": -0.285}
{"Strand": "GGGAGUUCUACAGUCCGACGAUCCCUGUGCUACACAUCGUAUGUACCGAAUCAAAUUUUUAAAUUUUUUUAAAUUUUUUUAAAAAAGUAUUAUGUUACGCCGUUCGGAUCUGCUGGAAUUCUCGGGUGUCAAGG", "log2 enrichment": -1.13}
{"Strand": "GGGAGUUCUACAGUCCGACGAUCCUGUGCUACACAUCGUAUGUACCGAAUCGGGGUUUUUUUGGUUUUUUUGGGGUUUUUUUGGGAAAGUAUUAUGUUACGCCGUUCGGAUCUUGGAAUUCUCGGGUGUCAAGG", "log2 enrichment": -0.963}
{"Strand": "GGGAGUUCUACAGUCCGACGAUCUCCUCAAGUCCUGUGCUACACAUCGUAUGUACCGAAUCGGGUGGGUGGUGGGAAAGUAUUAUGUUACGCCGUUCGGAUCUGCACUUCCAGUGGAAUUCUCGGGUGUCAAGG", "log2 enrichment": 1.14}
{"data": "Study 4", "target": "CRIPT, C-terminal peptide", "method": "DHFR complementation, deep sequencing", "matrix": "yeast", "setting": "single substitutions, model-inferred values", "reference": "wild type", "reading": "higher = weaker binding", "parent": "ERBIN, PDZ domain 1 (human); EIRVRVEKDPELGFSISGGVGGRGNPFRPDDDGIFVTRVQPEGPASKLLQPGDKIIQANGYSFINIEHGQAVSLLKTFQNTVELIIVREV; partner TKNYKQTSV"}
{"Substitution": "L48V", "binding free energy change [kJ/mol]": 0.539}
{"Substitution": "S73Y", "binding free energy change [kJ/mol]": 0.113}
{"Substitution": "D32E", "binding free energy change [kJ/mol]": 0.284}
{"Substitution": "A58C", "binding free energy change [kJ/mol]": 1.2}
{"Substitution": "H68P", "binding free energy change [kJ/mol]": 5.8}
{"Substitution": "K47D", "binding free energy change [kJ/mol]": 0.359}
{"Substitution": "G19Q", "binding free energy change [kJ/mol]": 5.22}
{"note": "Repeated from above (study 4):"}
{"Substitution": "S73Y", "binding free energy change [kJ/mol]": 0.113}
{"Substitution": "L48V", "binding free energy change [kJ/mol]": 0.539}
{"Substitution": "D32E", "binding free energy change [kJ/mol]": 0.284}
